Assay results of several laboratories.
Compare with care: the assays were run in different laboratories. ± gives the spread as reported.
CHRM3: Muscarinic acetylcholine receptor M3 (CHRM3, Homo sapiens, UniProt P20309)
Sequence of UniProt P20309 (whole entry, looked up): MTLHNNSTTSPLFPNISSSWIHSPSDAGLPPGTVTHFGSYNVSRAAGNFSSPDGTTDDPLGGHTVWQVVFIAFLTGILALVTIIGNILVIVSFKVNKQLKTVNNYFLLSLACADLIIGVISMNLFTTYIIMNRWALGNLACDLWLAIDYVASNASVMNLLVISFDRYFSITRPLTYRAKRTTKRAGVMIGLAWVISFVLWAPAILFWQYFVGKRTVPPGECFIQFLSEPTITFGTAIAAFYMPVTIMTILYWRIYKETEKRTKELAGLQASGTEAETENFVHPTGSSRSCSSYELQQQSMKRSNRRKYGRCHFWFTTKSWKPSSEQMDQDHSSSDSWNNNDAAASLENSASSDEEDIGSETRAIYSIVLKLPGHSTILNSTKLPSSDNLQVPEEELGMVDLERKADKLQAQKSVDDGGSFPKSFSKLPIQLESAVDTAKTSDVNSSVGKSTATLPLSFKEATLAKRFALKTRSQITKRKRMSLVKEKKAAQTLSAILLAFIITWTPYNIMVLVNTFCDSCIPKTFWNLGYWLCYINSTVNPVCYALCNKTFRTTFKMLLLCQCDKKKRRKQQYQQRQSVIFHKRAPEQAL
CHRM5: Muscarinic acetylcholine receptor M5 (CHRM5, Homo sapiens, UniProt P08912)
Sequence of UniProt P08912 (whole entry, looked up): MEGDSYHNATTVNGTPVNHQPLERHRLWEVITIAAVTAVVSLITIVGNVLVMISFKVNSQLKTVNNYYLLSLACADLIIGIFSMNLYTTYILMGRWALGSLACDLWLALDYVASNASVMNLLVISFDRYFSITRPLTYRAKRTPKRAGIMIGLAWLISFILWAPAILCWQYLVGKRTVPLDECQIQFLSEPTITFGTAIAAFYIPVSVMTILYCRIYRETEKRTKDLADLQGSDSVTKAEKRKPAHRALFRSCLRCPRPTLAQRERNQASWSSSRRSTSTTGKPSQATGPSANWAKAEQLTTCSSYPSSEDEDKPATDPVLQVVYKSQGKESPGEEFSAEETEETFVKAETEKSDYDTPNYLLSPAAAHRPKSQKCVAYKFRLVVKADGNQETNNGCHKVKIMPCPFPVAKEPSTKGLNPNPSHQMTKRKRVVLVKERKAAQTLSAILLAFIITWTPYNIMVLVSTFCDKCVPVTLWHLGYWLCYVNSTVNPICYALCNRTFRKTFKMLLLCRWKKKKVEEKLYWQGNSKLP
NTSR1: Neurotensin receptor type 1 (NTSR1, Homo sapiens, UniProt P30989)
Sequence of UniProt P30989 (whole entry, looked up): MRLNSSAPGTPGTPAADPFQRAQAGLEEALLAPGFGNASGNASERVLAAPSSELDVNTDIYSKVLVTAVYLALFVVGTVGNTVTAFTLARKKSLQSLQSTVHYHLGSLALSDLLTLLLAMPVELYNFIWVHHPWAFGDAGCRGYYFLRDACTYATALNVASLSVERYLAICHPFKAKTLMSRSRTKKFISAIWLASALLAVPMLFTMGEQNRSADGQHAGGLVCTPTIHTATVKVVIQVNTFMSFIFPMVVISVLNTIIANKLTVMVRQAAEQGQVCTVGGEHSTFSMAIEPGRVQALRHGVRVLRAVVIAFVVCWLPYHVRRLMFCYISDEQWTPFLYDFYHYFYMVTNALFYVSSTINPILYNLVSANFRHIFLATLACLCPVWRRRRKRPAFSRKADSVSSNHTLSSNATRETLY
TDP1: Tyrosyl-DNA phosphodiesterase 1 (TDP1, Homo sapiens, UniProt Q9NUW8)
Sequence of UniProt Q9NUW8 (whole entry, looked up): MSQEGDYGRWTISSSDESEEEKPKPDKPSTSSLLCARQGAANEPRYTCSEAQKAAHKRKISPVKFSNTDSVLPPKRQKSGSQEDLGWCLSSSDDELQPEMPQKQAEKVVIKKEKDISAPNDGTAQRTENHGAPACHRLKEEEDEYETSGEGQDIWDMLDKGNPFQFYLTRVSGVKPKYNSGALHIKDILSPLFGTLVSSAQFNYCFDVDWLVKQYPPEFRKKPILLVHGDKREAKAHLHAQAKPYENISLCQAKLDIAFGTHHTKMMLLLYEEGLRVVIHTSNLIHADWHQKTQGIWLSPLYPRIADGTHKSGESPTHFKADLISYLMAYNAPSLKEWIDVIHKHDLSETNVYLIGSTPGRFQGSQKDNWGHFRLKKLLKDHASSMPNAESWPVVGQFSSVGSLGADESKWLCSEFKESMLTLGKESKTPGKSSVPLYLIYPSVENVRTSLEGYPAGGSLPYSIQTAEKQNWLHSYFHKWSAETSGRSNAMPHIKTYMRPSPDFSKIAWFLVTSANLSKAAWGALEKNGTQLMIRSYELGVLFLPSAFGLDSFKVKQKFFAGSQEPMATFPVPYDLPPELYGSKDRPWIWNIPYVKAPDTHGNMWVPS
Sequence of UniProt P24530 (whole entry, looked up): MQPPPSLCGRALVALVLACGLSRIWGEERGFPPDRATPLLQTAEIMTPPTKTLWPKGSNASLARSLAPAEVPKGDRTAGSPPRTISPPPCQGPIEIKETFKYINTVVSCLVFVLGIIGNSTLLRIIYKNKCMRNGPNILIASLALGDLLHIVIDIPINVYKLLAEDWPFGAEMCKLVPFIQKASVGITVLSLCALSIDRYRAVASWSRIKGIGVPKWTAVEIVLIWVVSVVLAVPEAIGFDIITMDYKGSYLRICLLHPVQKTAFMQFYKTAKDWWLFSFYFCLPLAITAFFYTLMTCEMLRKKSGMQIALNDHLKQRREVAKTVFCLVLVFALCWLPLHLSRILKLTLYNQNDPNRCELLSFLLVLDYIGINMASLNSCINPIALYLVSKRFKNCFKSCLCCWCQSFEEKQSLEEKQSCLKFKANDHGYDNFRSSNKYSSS
Sequence of UniProt O09047 (whole entry, looked up): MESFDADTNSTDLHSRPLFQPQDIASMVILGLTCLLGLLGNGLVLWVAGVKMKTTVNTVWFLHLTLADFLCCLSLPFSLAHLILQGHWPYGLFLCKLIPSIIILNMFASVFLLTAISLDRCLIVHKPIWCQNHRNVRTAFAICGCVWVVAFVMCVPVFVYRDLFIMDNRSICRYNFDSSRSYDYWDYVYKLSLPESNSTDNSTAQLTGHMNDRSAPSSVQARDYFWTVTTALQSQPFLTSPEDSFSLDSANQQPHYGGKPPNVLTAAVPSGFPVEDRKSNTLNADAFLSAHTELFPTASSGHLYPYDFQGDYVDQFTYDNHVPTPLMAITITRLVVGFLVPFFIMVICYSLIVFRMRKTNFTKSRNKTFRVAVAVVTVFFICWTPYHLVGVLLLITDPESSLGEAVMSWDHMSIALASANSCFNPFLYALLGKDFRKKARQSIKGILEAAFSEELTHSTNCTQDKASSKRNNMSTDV
Sequence of UniProt Q969F8 (whole entry, unmodified, looked up): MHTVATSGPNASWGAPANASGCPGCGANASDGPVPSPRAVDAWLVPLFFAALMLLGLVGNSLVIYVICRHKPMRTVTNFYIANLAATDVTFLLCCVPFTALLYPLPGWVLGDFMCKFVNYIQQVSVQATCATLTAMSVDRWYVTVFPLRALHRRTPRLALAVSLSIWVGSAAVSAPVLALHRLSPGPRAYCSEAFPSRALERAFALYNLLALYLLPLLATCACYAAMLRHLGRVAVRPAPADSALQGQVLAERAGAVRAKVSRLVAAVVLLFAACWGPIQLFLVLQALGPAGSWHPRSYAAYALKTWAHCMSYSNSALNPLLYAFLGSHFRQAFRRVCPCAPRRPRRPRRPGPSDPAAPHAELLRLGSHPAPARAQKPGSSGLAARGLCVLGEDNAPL
Sequence of UniProt Q8TDU9 (whole entry, unmodified, looked up): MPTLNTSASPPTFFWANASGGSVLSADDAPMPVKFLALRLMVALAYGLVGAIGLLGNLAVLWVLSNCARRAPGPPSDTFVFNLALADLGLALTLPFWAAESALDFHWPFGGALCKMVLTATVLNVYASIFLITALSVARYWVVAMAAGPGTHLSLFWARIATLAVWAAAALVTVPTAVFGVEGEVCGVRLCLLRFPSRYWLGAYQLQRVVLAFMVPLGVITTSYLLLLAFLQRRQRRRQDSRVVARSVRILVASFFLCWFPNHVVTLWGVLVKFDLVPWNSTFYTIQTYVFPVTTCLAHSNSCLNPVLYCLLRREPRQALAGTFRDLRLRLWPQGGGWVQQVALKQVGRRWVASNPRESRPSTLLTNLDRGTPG

`CCCCCCOc1ccc(C(=O)OCCN2CC=CCC2)cc1` gave an Emax of 1.27 ± 0.05 fold (CHRM3; membranes; 100 µM, 15 h, with: carbachol; relative to: control).
The Emax of `CCCC[C@H](NC(=O)[C@H](CC(C)C)NC(=O)[C@H](CO)NC(=O)[C@H](CO)NC(=O)[C@H](C)NC(=O)[C@H](CO)NC(=O)[C@H](C)N)C(=O)N[C@@H](CC(=O)O)C(=O)N[C@@H](CCCCN)C(=O)N[C@@H](CCC(=O)O)C(=O)N[C@@H](C)C(=O)N[C@H](C(=O)N[C@@H](Cc1ccc(O)cc1)C(=O)N[C@@H](Cc1ccccc1)C(=O)N[C@@H](C)C(=O)N[C@@H](Cc1c[nH]cn1)C(=O)N[C@@H](CC(C)C)C(=O)N[C@@H](CC(=O)O)C(=O)N[C@H](C(=O)N[C@H](C(=O)N[C@@H](Cc1c[nH]c2ccccc12)C(=O)O)[C@@H](C)CC)[C@@H](C)CC)C(C)C` is reported as 76 ± 5% (EDNRB (Homo sapiens, UniProt P24530); agonist; HEK293; ETBR/ETAR ratio 1:0.75).
`C=CCn1c(=O)c2ccccc2n2c(SCC(=O)NCc3ccc(NC(C)=O)cc3)nnc12` gave an Emax of 108 ± 2% (CHRM5; receptor activation, agonist; concentration not given, 16 h).
`CNC(=N)NCCC[C@H](NC(=O)[C@H](CC(C)C)NC(=O)NNC(=O)[C@H](Cc1ccccc1)NC(=O)[C@@H](NC(=O)[C@H](CC(N)=O)NC(=O)[C@@H]1C[C@@H](O)CN1C(=O)[C@@H](Cc1ccc(O)cc1)NC(C)=O)[C@@H](C)O)C(=O)N[C@@H](Cc1c[nH]c2ccccc12)C(N)=O` gave an Emax of 98.6% (KiSS-1 receptor (KISS1R, Homo sapiens, UniProt Q969F8, H309A); inositol phosphate, agonist; HEK293).
For `CCCCOc1ccc(C(=O)OCC[N+]2(C)CC=CCC2)cc1` (stereo not drawn), the Emax was 1.26 ± 0.06 fold (CHRM3; membranes; 10 µM, 15 h, with: carbachol; relative to: control).
For `COc1ccccc1C1CCN(c2nc(C3CCCC3)nc3ccc(N(C)CCO)cc23)CC1`, the Emax was 115% (NTSR1; β-arrestin recruitment, agonist; HEK-293T).
`CC(C)C[C@H](NC(=O)[C@@H](N)[C@@H](C)O)C(=O)N[C@@H](CCC(N)=O)C(=O)N1CCC[C@H]1C(=O)N1CCC[C@H]1C(=O)N[C@@H](C)C(=O)N[C@@H](CO)C(=O)N[C@@H](CO)C(=O)N[C@@H](CCCNC(=N)N)C(=O)N[C@@H](CCCNC(=N)N)C(=O)N[C@@H](CCCNC(=N)N)C(=O)N[C@@H](Cc1c[nH]cn1)C(=O)N[C@@H](Cc1ccccc1)C(=O)N[C@@H](Cc1c[nH]cn1)C(=O)N[C@@H](Cc1c[nH]cn1)C(=O)N[C@@H](C)C(=O)N[C@@H](CC(C)C)C(=O)N1CCC[C@H]1C(=O)N1CCC[C@H]1C(=O)N[C@@H](C)C(=O)N[C@@H](CCCNC(=N)N)C(=O)O` has an Emax of 37.2 ± 1.08% (C3a anaphylatoxin chemotactic receptor (C3ar1, Mus musculus, UniProt O09047); GoA protein dissociation, agonist, NanoBiT; relative to: TLQP-21).
`CCCCCCOc1ccc(C(=O)OCC[N+]2(C)CC=CCC2)cc1` (stereo not drawn) has an Emax of 1.44 ± 0.06 fold (CHRM5; membranes; 10 µM, 15 h, with: carbachol; relative to: control).
For `O=C(O)c1ccc(Nc2c(-c3ccccc3)nc3ccc(CON=Cc4ccc(CN5C(=O)c6ccccc6C5=O)o4)cn23)cc1`, the inhibition was 35.1% (TDP1; enzyme activity, inhibitor; 100 µM, unpurified compound).
For `CC[C@H](C)[C@@H]1NC(=O)[C@H](Cc2ccccc2)NC(=O)[C@H](CCC(=O)O)NC(=O)[C@H](CCCNC(=N)N)NC(=O)CNC(=O)[C@@H](NC(=O)[C@H](CC(C)C)NC(=O)[C@H](CCCNC(=N)N)NC(=O)[C@@H](NC(=O)CNC(=O)[C@H](Cc2ccc(O)cc2)NC(=O)[C@@H]2CCCN2C(=O)[C@H](C)NC(=O)[C@H](C)NC(=O)[C@@H](N)CCCNC(=N)N)C(C)C)CSSC[C@@H]2NC(=O)[C@@H](NC(=O)[C@H](CO)NC(=O)[C@H](CO)NC(=O)[C@H](CO)NC(=O)[C@H](CC(C)C)NC(=O)CNC(=O)[C@H](C)NC(=O)[C@H](CC(C)C)NC(=O)[C@@H](NC(=O)[C@@H](N)CC(=O)O)C(C)C)CSSC[C@H](NC(=O)CNC(=O)[C@H](Cc3c[nH]c4ccccc34)NC(=O)[C@H](CCCCN)NC2=O)C(=O)N[C@@H](CO)C(=O)N[C@@H](CCCCN)C(=O)N[C@@H](CO)C(=O)N[C@@H](CCC(=O)O)C(=O)N[C@@H]([C@@H](C)CC)C(=O)N[C@@H](CO)C(=O)N[C@@H](CO)C(=O)N[C@@H](CC(C)C)C(=O)N[C@H](C(=O)O)CSSC[C@@H](C(=O)NCC(=O)NCC(=O)N[C@@H](CO)C(=O)N[C@@H](CCCNC(=N)N)C(=O)N[C@@H](Cc2c[nH]c3ccccc23)C(=O)O)NC(=O)[C@H]([C@@H](C)O)NC(=O)[C@H](Cc2ccccc2)NC(=O)[C@H]([C@@H](C)CC)NC(=O)[C@H](C(C)C)NC(=O)[C@H](C)NC(=O)[C@H](CCCNC(=N)N)NC1=O`, the Emax was 76.3 ± 6.64% (RXFP4 (Homo sapiens, UniProt Q8TDU9, F105A); HEK-293T; relative to: wild type).
For `Cc1nc(C)c2c(C)c(C=NOCc3ccc(-c4nc5cc(-c6ccccc6)ccn5c4Nc4ccc(C(=O)O)cc4)cc3)sc2n1` (mixture of isomers), the inhibition was 95.7% (TDP1; enzyme activity, inhibitor; 100 µM, unpurified compound).
For `CCCN(C)c1ccc2nc(C3CC3)nc(N3CCC(c4ccccc4OC)CC3)c2c1`, the Emax was 137% (NTSR1; β-arrestin recruitment, agonist; HEK-293T).

For quick reference, copied from above:
`CC(C)C[C@H](NC(=O)[C@@H](N)[C@@H](C)O)C(=O)N[C@@H](CCC(N)=O)C(=O)N1CCC[C@H]1C(=O)N1CCC[C@H]1C(=O)N[C@@H](C)C(=O)N[C@@H](CO)C(=O)N[C@@H](CO)C(=O)N[C@@H](CCCNC(=N)N)C(=O)N[C@@H](CCCNC(=N)N)C(=O)N[C@@H](CCCNC(=N)N)C(=O)N[C@@H](Cc1c[nH]cn1)C(=O)N[C@@H](Cc1ccccc1)C(=O)N[C@@H](Cc1c[nH]cn1)C(=O)N[C@@H](Cc1c[nH]cn1)C(=O)N[C@@H](C)C(=O)N[C@@H](CC(C)C)C(=O)N1CCC[C@H]1C(=O)N1CCC[C@H]1C(=O)N[C@@H](C)C(=O)N[C@@H](CCCNC(=N)N)C(=O)O` has an Emax of 37.2 ± 1.08% (C3a anaphylatoxin chemotactic receptor (C3ar1, Mus musculus, UniProt O09047); GoA protein dissociation, agonist, NanoBiT; relative to: TLQP-21).
